{"data": "Results of several laboratories", "note": "Numbered parts are unrelated; each lists some results of a single study."}
{"data": "Series 1", "target": "Sal-like protein 4, full length isoform A (SALL4, Homo sapiens, UniProt Q9UJQ4, residues 1-1053)", "technique": "universal PBM", "molecule type": "double-stranded DNA, one strand shown", "matrix": "in vitro", "concentration": "600 nM", "setting": "8-mer, flanks averaged, mean of replicates", "reading": "higher = stronger binding", "chain of UniProt Q9UJQ4 (whole entry, looked up)": "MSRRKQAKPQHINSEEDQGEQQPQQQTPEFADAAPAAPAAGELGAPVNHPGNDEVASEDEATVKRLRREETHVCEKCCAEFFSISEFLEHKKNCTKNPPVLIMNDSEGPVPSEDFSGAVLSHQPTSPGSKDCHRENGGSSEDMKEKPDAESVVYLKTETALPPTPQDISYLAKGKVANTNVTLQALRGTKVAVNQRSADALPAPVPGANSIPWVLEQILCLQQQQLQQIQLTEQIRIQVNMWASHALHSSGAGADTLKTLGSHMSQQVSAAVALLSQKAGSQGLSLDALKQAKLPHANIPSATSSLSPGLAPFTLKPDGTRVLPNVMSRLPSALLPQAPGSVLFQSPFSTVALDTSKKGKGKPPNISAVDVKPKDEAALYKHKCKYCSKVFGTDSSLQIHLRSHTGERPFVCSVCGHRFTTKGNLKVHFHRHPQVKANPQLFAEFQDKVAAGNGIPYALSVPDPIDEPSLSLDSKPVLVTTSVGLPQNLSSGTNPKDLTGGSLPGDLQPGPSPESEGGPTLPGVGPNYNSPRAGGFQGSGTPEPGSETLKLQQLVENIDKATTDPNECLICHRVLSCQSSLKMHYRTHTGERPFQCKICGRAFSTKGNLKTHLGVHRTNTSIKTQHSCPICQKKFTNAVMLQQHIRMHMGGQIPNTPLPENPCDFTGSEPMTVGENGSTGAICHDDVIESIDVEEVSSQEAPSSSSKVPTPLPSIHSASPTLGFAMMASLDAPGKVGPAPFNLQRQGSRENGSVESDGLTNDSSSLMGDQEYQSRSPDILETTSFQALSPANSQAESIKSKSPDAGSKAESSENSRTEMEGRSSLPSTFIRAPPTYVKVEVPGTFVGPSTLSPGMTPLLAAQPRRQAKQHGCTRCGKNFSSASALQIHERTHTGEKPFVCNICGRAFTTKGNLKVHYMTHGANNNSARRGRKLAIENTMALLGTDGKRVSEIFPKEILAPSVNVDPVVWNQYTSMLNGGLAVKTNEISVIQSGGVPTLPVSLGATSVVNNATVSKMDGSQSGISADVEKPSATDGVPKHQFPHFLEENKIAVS"}
{"Sequence": "GTGAGTTA", "E-score": -0.0198}
{"Sequence": "CAGCGCTA", "E-score": -0.103}
{"Sequence": "ATTTAACG", "E-score": 0.203}
{"Sequence": "CGCGAGGC", "E-score": -0.23}
{"Sequence": "GAGTTTCC", "E-score": -0.0451}
{"Sequence": "AGAAAATG", "E-score": 0.133}
{"data": "Series 2", "target": "Prothrombin, mature alpha-thrombin (F2, Homo sapiens, UniProt P00734)", "technique": "aptamer microarray, sandwich", "molecule type": "DNA with 2'F-ANA", "matrix": "in vitro", "concentration": "200 nM", "setting": "whole 15-mer aptamer, many near background", "added": "Cy3 exosite-II aptamer, 400 nM", "reading": "higher = stronger binding", "sequence": "GGTTGGTGTGGTTGG"}
{"Modification": "2'F-ANA at 2 4 6 8 14 15", "mean fluorescence intensity": "95.6 a.u."}
{"Modification": "2'F-ANA at 3 5 6 8 10 11 14 15", "mean fluorescence intensity": "49.1 a.u."}
{"Modification": "2'F-ANA at 1 4 5 6 7 8 11 12 14", "mean fluorescence intensity": "52.6 a.u."}
{"Modification": "2'F-ANA at 3 5 8 9 11 12 14 15", "mean fluorescence intensity": "98.7 a.u."}
{"Modification": "2'F-ANA at 1 2 4 5 6 8 10 11 14", "mean fluorescence intensity": "53.6 a.u."}
{"Modification": "2'F-ANA at 1 2 3 4 5 9 14 15", "mean fluorescence intensity": "73.7 a.u."}
{"Modification": "2'F-ANA at 2 11", "mean fluorescence intensity": "438 a.u."}
{"Modification": "2'F-ANA at 1 2 6 8 14", "mean fluorescence intensity": "78.3 a.u."}
{"Modification": "2'F-ANA at 4 5 6 8 10 12 15", "mean fluorescence intensity": "60.6 a.u."}
{"data": "Series 3", "target": "Interferon regulatory factor 3, full length, phosphomimetic (IRF3, Homo sapiens, UniProt Q14653, residues 1-427, S386D/S396D/S398D/S402D/T404D/S405D)", "technique": "protein-binding microarray", "molecule type": "double-stranded DNA, one strand shown", "matrix": "in vitro", "concentration": "2540 nM top", "setting": "60-bp whole probe", "added": "salmon DNA 0.4 mg/ml", "relative to": "random background probes", "reading": "higher = stronger binding", "constant ends, left off below": "GCCTAGCAC … GTCTTGATTCGCTTGACGCTGCTG", "Residues (chain)": "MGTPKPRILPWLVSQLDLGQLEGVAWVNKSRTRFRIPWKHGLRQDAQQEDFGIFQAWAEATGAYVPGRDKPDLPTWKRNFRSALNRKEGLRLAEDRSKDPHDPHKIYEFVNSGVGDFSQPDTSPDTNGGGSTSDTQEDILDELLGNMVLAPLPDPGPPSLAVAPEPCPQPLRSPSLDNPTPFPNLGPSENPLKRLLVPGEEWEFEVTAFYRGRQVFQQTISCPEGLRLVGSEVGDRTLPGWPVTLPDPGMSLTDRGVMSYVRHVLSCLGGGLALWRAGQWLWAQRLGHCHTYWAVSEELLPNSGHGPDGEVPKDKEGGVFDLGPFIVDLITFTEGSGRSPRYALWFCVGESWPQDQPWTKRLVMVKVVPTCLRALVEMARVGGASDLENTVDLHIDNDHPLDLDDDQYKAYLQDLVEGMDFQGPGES"}
{"Sequence": "GACTGTATCCTTATCCTGACGTGCTAG", "fitted relative affinity": "4.73 z-score"}
{"Sequence": "TTAAATCTCAGTATCGATTAGTGCTAG", "fitted relative affinity": "1.15 z-score"}
{"Sequence": "TTAGGTTTCGGGTAGCGGTTAGTGCTA", "fitted relative affinity": "3.35 z-score"}
{"Sequence": "TAAGATTTCAGTATCGATTAGTGCTAG", "fitted relative affinity": "2.65 z-score"}
{"Sequence": "GACGAACCGGGGACTGGAGACGTGCTA", "fitted relative affinity": "-0.623 z-score"}
{"Sequence": "TCAGCTTTCTTTATGTAACTGTGCTAG", "fitted relative affinity": "1.44 z-score"}
{"data": "Further values, each from its own experiment"}
{"Substance": "PhoQ, residues 284 288 289 292 302 303 ASVMEA", "target": "PhoP, residues 12 14 15 18 19 LHHSG (Escherichia coli, UniProt P23836)", "test": "Sort-seq, item: YFP reporter", "test system": "E. coli", "setting": "PhoQ-PhoP variant library, added: 10 µM Mg2+", "scale": "relative to: high Mg2+ state, higher = stronger signaling", "endpoint": "fold induction", "result": 29.1}
{"note": "Repeated from above (series 1):"}
{"Sequence": "ATTTAACG", "E-score": 0.203}
{"Sequence": "CGCGAGGC", "E-score": -0.23}
{"Sequence": "GTGAGTTA", "E-score": -0.0198}
{"Sequence": "GAGTTTCC", "E-score": -0.0451}
